Results pooled from the literature.
Numbered parts are unrelated; each lists some results of a single study.

Set 1
Target: Interferon regulatory factor 3, full length, phosphomimetic (IRF3, Homo sapiens, UniProt Q14653, residues 1-427, S386D/S396D/S398D/S402D/T404D/S405D)
Chain of UniProt Q14653 (whole entry, unmodified, looked up): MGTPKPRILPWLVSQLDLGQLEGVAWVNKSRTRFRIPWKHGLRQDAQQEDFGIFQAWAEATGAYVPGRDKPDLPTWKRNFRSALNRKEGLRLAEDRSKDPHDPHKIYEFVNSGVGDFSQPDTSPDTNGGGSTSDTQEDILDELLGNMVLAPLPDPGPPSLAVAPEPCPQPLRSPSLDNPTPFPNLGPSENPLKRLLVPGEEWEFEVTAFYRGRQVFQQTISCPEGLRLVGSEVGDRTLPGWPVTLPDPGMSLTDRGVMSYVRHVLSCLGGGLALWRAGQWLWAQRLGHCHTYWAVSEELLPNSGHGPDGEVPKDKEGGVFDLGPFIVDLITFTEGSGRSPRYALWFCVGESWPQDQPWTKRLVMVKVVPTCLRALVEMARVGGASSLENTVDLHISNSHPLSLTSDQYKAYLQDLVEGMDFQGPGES
Technique: protein-binding microarray
Molecule type: double-stranded DNA, one strand shown
Matrix: in vitro
Tested at: 2540 nM top
Notes: 60-bp whole probe
Together with: salmon DNA 0.4 mg/ml
Reference: random background probes
Reading: higher = stronger binding
Quantity: fitted relative affinity
Shared flanks, not repeated: GCCTAGCAC … GTCTTGATTCGCTTGACGCTGCTG
Strand = GACGATATCAGCTTCGAGACGTGCTAG; value = 0.267 z-score
Strand = TTAGGTTGCGGGACTGGGTTAGTGCTA; value = 1.21 z-score
Strand = TAGCATGTAATTTGTTTGCAGTGCTAG; value = -0.335 z-score
Strand = TCATTTCTCTGCTCTTTTACTGTGCTA; value = 2.37 z-score
Strand = TTAGGTATCGGGTTTCGGTTAGTGCTA; value = 3.95 z-score
Strand = GTCGGACTGGGTTTCGGGACGTGCTAG; value = 1.55 z-score
Strand = TGGGTTGTAGGTTTTCTGAAGGTGCTA; value = -0.497 z-score
Strand = TCAGGTCTGGGTATTTTACTGTGCTAG; value = -0.263 z-score
Strand = TTAGGTATCGGTATCGGTTGGTGCTAG; value = 4.4 z-score
Strand = GACGGACTGGGTCTCGGGGCGTGCTAG; value = -0.899 z-score
Strand = GTTTTACTTTCTATCTCTGTGTGCTAG; value = 5.81 z-score
Strand = ATAGGTCTCGGACTGGGTTAGTGCTAG; value = -0.21 z-score
Strand = AACGGTTTCCTTATCCTGACGTGCTAG; value = 7.79 z-score
Strand = GACGGTCTCCCTCTCCTGACGTGCTAG; value = 2.54 z-score
Strand = GACGGTGTCGGTTCCGGGACGTGCTAG; value = 3.93 z-score
Strand = TCAGTTATTAAATTTTCAACTGTGCTA; value = 0.399 z-score

Set 2
Target: Hepatocyte nuclear factor 3-beta, forkhead domain (FOXA2, Homo sapiens, UniProt Q9Y261, residues 142-269)
Technique: protein-binding microarray
Molecule type: double-stranded DNA, one strand shown
Matrix: in vitro
Tested at: not given
Notes: k-mer, scored over probes, only values ≥0.25
Reading: higher = stronger binding
Quantity: E-score
Target sequence (chain): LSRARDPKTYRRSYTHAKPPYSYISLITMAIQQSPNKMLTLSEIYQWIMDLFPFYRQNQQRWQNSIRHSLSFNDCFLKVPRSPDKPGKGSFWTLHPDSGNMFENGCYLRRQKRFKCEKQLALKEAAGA
Strand = ATAATTAC; value = 0.356
Strand = ACATACAT; value = 0.412
Strand = CCATTAAC; value = 0.314
Strand = AACACATT; value = 0.269
Strand = ATACGATA; value = 0.325
Strand = ATTATGCG; value = 0.259
Strand = ACGAATAC; value = 0.278
Strand = GTGTACAC; value = 0.396
Strand = CATATATA; value = 0.403
Strand = GAATAACA; value = 0.323
Strand = ATGTACAT; value = 0.261
Strand = TAGTATAA; value = 0.295
Strand = TATATACA; value = 0.401
Strand = AATAGGTA; value = 0.263
Strand = ATAGGTTA; value = 0.27
Strand = ATAGAATA; value = 0.334

Set 3
Target: Centromere-binding protein 1, full length, N-terminal tag (CBF1, Saccharomyces cerevisiae, UniProt P17106, residues 1-351)
Chain of UniProt P17106 (whole entry, looked up): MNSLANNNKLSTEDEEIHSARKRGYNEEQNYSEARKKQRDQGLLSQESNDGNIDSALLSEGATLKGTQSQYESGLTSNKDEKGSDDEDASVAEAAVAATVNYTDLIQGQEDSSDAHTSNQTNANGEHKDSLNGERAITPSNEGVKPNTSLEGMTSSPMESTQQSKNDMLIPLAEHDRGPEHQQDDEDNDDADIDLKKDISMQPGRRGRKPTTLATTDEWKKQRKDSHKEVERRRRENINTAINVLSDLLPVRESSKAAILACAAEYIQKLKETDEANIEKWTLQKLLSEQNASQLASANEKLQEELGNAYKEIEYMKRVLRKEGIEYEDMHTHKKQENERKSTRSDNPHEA
Technique: protein-binding microarray
Molecule type: double-stranded DNA, one strand shown
Matrix: in vitro
Tested at: 0.8 µM
Notes: whole 60-bp probe, no competitor
Reading: higher = stronger binding
Quantity: fluorescence intensity
Strand = CTAAGAAATCTGCTGCACATGCCACACGCAGTATTCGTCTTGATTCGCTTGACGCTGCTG; value = 699 a.u.
Strand = CTAAGACGTATAAAAAACGTGAAGGGTGAAGAATTCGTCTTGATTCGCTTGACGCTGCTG; value = 641 a.u.
Strand = GAAAAAGAGATGCGCGGCGTGCCTGCGCGGCGGTAGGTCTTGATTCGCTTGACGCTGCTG; value = 484 a.u.
Strand = GAATTCATAATACCCCACGAAAAATCATTAATCTAGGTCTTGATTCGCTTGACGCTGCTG; value = 500 a.u.
Strand = CTAATGTCGTTTTGTGAGGTGAGCTTTGCTAGTTTCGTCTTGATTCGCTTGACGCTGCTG; value = 516 a.u.
Strand = GAATTTCAACTCCCCCACGTCCAGCGGATTGCTTAGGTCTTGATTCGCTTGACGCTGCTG; value = 492 a.u.
Strand = CTAATGTTCTGCAAGAGCGTGCCTGGCCCTTGGTTCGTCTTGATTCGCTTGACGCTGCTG; value = 541 a.u.
Strand = GAAGATTAACACGAGAACGTGAGTACTCAATCATAGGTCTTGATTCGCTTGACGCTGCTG; value = 748 a.u.
Strand = GAAAAAAGATCTCATAGCGTGACATCCGTATATTAGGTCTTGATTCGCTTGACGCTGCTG; value = 765 a.u.
Strand = CTAAGAACAGCTCTCCGCGTGTATATCTTTTTTTTCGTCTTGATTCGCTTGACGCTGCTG; value = 529 a.u.
Strand = CTATGGCGGCATAGTAACATCAAAAAAAAAAAATTCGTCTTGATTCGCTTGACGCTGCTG; value = 519 a.u.
Strand = CTAAGAACTATAAATCACATGTGCTGTCAAGAGTTCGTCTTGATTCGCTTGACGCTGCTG; value = 2690 a.u.
Strand = CTATTATATTCGTGGAAGGTGACGATAGTAATATTCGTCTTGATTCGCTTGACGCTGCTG; value = 591 a.u.
Strand = GAAGACATTGTAAGAAACGTGACTTTTCAAATATAGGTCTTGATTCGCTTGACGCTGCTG; value = 2500 a.u.
Strand = CTATTTTACATTAATGACGTCATGGTAGTGCTCTTCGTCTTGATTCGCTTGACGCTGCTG; value = 528 a.u.
Strand = CTATTTATTTCTCGAATCACCTGTATTTGTGCCTTCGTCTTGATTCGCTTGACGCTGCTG; value = 736 a.u.
Strand = CTAGCTCCATCGGGACAGGAGATTTTATTAATGTTCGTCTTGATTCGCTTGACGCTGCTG; value = 491 a.u.

Set 4
Target: Histone acetyltransferase KAT6A, winged helix 2, GST fusion (KAT6A, Homo sapiens, UniProt Q92794, residues 85-181)
Technique: protein binding microarray
Molecule type: double-stranded DNA, one strand shown
Matrix: in vitro
Tested at: not given
Notes: 8-mer, flanks averaged, mean of 2 arrays, mostly near background
Reference: not given
Reading: higher = stronger binding
Quantity: E-score
Residues (chain): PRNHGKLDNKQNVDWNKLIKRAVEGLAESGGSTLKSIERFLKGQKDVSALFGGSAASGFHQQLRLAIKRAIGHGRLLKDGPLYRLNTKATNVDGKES
Strand = AATAGCGT; value = -0.109
Strand = ACGGGAAT; value = -0.0533
Strand = AACTGACC; value = -0.137
Strand = AAATACAA; value = 0.0192
Strand = GATAAATC; value = 0.102
Strand = AGAGCCAG; value = 0.00667
Strand = AAGCGATA; value = 0.0683
Strand = CTACACAA; value = -0.0345
Strand = AAACTCGG; value = 0.0518
Strand = CCAGTTTA; value = -0.0261
Strand = AGCTGAAC; value = -0.0395
Strand = TCGCGCAA; value = 0.144
Strand = ATATCATG; value = -0.0148
Strand = CAGAAGTA; value = 0.00059
Strand = CCTATAGG; value = -0.156
Strand = GGGTATGA; value = -0.0142
Strand = TTCCAGAA; value = 0.0102
Strand = ACTTACGC; value = -0.0415
Strand = ACATGTAT; value = -0.12
Strand = CTGGACAG; value = 0.0698
Strand = AATTCCTA; value = -0.065
Strand = AAAGCAGT; value = 0.153
Strand = GCTTGCAA; value = 0.0789
Strand = GCCCACCA; value = -0.0454
Strand = ATACTAGC; value = 0.0627

Set 5
Target: Sal-like protein 4, full length isoform B (SALL4, Homo sapiens, UniProt Q9UJQ4-2, residues 1-616)
Technique: universal PBM
Molecule type: double-stranded DNA, one strand shown
Matrix: in vitro
Tested at: not given
Notes: 8-mer, flanks averaged, mean of replicates
Reading: higher = stronger binding
Quantity: E-score
Strand = AAGCTTGA; value = 0.00264
Strand = CCGCGCTA; value = -0.158
Strand = TTCTTAAA; value = 0.122
Strand = AAGCCAGA; value = -0.214
Strand = CTTGAGAC; value = -0.145
Strand = TGCTTACA; value = 0.129
Strand = GGCTTCCA; value = -0.237
Strand = AGCAGGAT; value = -0.114
Strand = GGGGACAA; value = -0.178
Strand = AAGCTATC; value = 0.11
Strand = CACAATAG; value = 0.0637
Strand = AGAAATTC; value = 0.0436
Strand = AGACGAAT; value = 0.197
Strand = GTTAGGAA; value = -0.00608
Strand = AATAAATG; value = 0.362
Strand = GAGTAACA; value = 0.0846

Some of these lines once more (set 2):
Strand = ATTATGCG; value = 0.259
Strand = ATAATTAC; value = 0.356
Strand = TATATACA; value = 0.401
Strand = TAGTATAA; value = 0.295
Strand = ATACGATA; value = 0.325
Strand = GAATAACA; value = 0.323
Strand = GTGTACAC; value = 0.396
Strand = ACGAATAC; value = 0.278
